Results gathered from unrelated publications.
Each numbered part is a random draw from the data of one study; scales do not carry over between parts.

Study 1
Target: RNA binding protein fox-1 homolog 2, RRM domain, GST-SBP tag (RBFOX2, Homo sapiens, UniProt O43251-10, residues 100-194)
Method: RNA Bind-n-Seq
Molecule type: RNA
Medium: in vitro
Tested at: 365 nM
Notes: natural RNA segment, single round, ends assumed
Relative to: no-protein control
Direction: higher = stronger binding
Measurement: RBNS enrichment (R)
Construct (chain): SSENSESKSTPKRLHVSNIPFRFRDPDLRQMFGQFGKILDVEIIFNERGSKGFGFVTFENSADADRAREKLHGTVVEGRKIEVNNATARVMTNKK
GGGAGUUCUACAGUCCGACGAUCCAAAUGUUUGCCCUGGUGGUUCCUAUCUCUUCAGGCAAACAUGGUCAGUAUUCUGUAAAGUUCCCCUGGCCUAAAUGAUUACUUGCUCUGGGCAAGUGGAUAUUUAUUAGUGGAAUUCUCGGGUGCCAA: 0.348
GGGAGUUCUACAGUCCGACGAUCAAGUGAGAGUUUUGGUUAGUAAUCACAGCUGUAAAAUUGAUUUACACUUGUUAAACAUAUUGCCCCUCAAUUUUGCACACUAUAUUCUUGUAUAUUAUUUCAAAUAAAAGUGGAAUUCUCGGGUGCCAA: 0.384
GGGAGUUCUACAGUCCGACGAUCAGCCUUUGUGGUUGAAAUGAAUAACGAUUCGGUUUUCUGAACUGUACACAUCCUUGUUCAGUUUUCUUUUGAUGACUAAGGCUCAGUACCAGCGAGCUGUAGGCCAUGUCUGGAAUUCUCGGGUGCCAA: 0.326
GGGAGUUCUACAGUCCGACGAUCUAAGUAUGAAUACACAGUGUGGCAGUGUUGUGGUUUUUGUUGUUGUUUUUCCUCUCCUUUUGAGAAUUUUCUUUUGUAAAAGAAAAAUAUUUUUUAAACCGAAAUCUGUGUGGAAUUCUCGGGUGCCAA: 1.96
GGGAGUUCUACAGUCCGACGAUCGCUGGAAACCUGAGUGACCCUCCCUCCCCACCAAGAGUCCACAGACCUUUCAUCUUUCACGAACUUGAUCCUGUUAGCAGGUGGUAAUACCAUGGGUGCUGUGACACUAAUGGAAUUCUCGGGUGCCAA: 0.363
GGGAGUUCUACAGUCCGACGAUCCCUCCAUCAGAUGCCUGGGCCUCCUCCAUCAGAUGUCUAGGCCUCCUCCAUCAGAUGCCUGGGCCUCCUCCAUCAGAUGCCUAGGCCUCCUCCAUCAGAUGUCUGGGCCUUGGAAUUCUCGGGUGCCAA: 0.375
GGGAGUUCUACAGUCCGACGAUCAGGAAAAAAAAUUGAAUCUUGGUCAACAUUUAAACCAAAGUAAAAGGGGAAAAACCAAAGUUAUUUGUUUUGCAUGGCUAAGCCAUUCUGUUAUCUCUGUAAAUACUGUGUGGAAUUCUCGGGUGCCAA: 0.652
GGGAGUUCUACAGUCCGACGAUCCACCCACCACUUACUUGUGCCAGAAACUCUGGAGGCACCCACACCUCCCACCUGUUCAGGUUGUGGCAGCCUCUGUGCAGGUUGGAUGUGGAAAUAAAAGCAACCCUGUGUGGAAUUCUCGGGUGCCAA: 0.838
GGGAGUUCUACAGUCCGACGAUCGCUUAUCAUCCAAUCCCCUUUAACUGGGAUAAGAAACCAAAGGAGGAAAUAUUCUCUAUGGUAAUCCUUGCCAGAGGGUCUCCAAAGGAAGCUAACCGCUGGCCCCGAAUUGGAAUUCUCGGGUGCCAA: 0.338
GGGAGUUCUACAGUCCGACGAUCUACUAUUCUUAAAUGAAGUCCUCCCCAAACGUGAAUGGAAGCAGAGUUCUUUGCCAGGCUGCCUGCCGGAAAAGGUGUAGACAGAUGCUACUAAGACACCAAAUAGUGUCUGGAAUUCUCGGGUGCCAA: 0.327
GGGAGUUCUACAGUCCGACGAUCUGAUACUUGUGGAUGUUUUUCUUCAUUAGAUAAGAAUGUAUUACCAUUAAAUCCAUUAGUAUUACAUUGCUUUCAAAGAGAAGGUGGGUGGAACUAUAAUUCAGCAUCUUUGGAAUUCUCGGGUGCCAA: 0.642
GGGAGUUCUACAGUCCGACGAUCGCCAUGUGCUUUGCAUCUUUCUUAUUUGAUUCUUUUAAAGAAGUGUAGGGAGGAAAACCUGUCAUUUUUGUUGUUUUGCCAGAAUGAAUGACGAUAACUCCUCCUGUUAAUGGAAUUCUCGGGUGCCAA: 2.2

Study 2
Target: Prothrombin, mature alpha-thrombin (F2, Homo sapiens, UniProt P00734)
Method: aptamer microarray, sandwich
Molecule type: DNA with 2'F-ANA
Medium: in vitro
Tested at: 200 nM
Notes: whole 15-mer aptamer, many near background
With: Cy3 exosite-II aptamer, 400 nM
Direction: higher = stronger binding
Measurement: mean fluorescence intensity
Sequence: GGTTGGTGTGGTTGG
2'F-ANA at 2 3 6 7 8 9 10 14 15: 274 a.u.
2'F-ANA at 7 8 9 10 11 12 13 14: 116 a.u.
2'F-ANA at 1 4 6 7 8 11 13: 90.8 a.u.
2'F-ANA at 2 4 6 7 9 13 15: 139 a.u.
2'F-ANA at 3 4 7 8 9 12: 1220 a.u.
2'F-ANA at 2 3 4 5 7 8 9 10 11 13: 51.9 a.u.
2'F-ANA at 1 4 7 8 9 14 15: 71.4 a.u.
2'F-ANA at 1 3 5 8 9 11 12: 183 a.u.
2'F-ANA at 1 2 3 7 8 11 14 15: 83.7 a.u.
2'F-ANA at 1 2 3 4 5 6 7 8 9 13 14 15: 49.5 a.u.
2'F-ANA at 1 2 3 8 9 10 13: 64.6 a.u.
2'F-ANA at 1 2 3 4 5 6 7 13: 47.9 a.u.
2'F-ANA at 3 13: 1010 a.u.
2'F-ANA at 1 6 8 10 11 14 15: 47.7 a.u.
2'F-ANA at 1 3 6 8 10 11 12 13 14: 61.2 a.u.
2'F-ANA at 2 6 9 10 12 14 15: 82.7 a.u.
2'F-ANA at 1 2 3 4 5 6 7 8 11 12 14 15: 47.5 a.u.
2'F-ANA at 1 2 7 8 9 11 12 13 15: 254 a.u.
2'F-ANA at 2 3 8 10 11 12 13 14: 264 a.u.
2'F-ANA at 1 3 6 7 9 10 12: 102 a.u.
2'F-ANA at 1 2 4 9 11 12 13: 151 a.u.
2'F-ANA at 1 3 4 7 9 11: 157 a.u.
2'F-ANA at 3 5 8 9 10 11 12 13 14 15: 51.5 a.u.
2'F-ANA at 2 4 5 10 12 14: 44.9 a.u.
2'F-ANA at 4 5 6 7 8 11 12 13 14 15: 50.4 a.u.

Study 3
Target: Histone acetyltransferase KAT6A, both winged helices, GST fusion (KAT6A, Homo sapiens, UniProt Q92794, residues 1-181)
Method: protein binding microarray
Molecule type: double-stranded DNA, one strand shown
Medium: in vitro
Tested at: not given
Notes: 8-mer, flanks averaged, mean of 2 arrays, mostly near background
Relative to: not given
Direction: higher = stronger binding
Measurement: E-score
Target sequence (chain): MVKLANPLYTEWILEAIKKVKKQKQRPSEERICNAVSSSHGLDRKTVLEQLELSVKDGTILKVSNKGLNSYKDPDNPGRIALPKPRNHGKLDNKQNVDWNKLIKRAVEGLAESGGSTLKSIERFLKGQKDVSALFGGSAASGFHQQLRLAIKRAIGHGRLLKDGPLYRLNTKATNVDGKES
GGGCAGAA: -0.0939
ACGACACC: -0.0269
ATTCTGCG: 0.0812
CTCATCGC: 0.0718
CGGGCTTC: 0.193
AACCCCAA: -0.276
CTTAAAAC: -0.103
GGAATTGA: -0.0791
ACGATATA: -0.0834
GGTTCGAC: -0.0882
GACGTGGC: -0.0331
CTTGGCGA: -0.0133
CACCTAAA: -0.204
ACGGATTG: 0.165
AAGCGGTG: 0.12
AAGGCGGT: 0.0355
ATGCAACG: 0.0109
GACTGGGC: -0.172
CCTTGGAA: -0.15

Study 4
Target: RING finger protein unkempt homolog, zinc fingers 1-6, GST-SBP tag (UNK, Homo sapiens, UniProt Q9C0B0, residues 30-357)
Chain of UniProt Q9C0B0 (30-357, looked up): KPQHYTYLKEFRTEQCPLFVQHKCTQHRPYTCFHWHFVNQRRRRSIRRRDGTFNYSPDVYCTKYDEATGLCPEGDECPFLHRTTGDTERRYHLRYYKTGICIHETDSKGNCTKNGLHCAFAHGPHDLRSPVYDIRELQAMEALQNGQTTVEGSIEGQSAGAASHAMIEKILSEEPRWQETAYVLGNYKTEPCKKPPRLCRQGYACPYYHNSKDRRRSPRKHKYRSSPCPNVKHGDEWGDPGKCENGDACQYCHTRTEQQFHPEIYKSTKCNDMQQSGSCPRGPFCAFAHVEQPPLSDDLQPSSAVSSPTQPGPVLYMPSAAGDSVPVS
Method: RNA Bind-n-Seq
Molecule type: RNA
Medium: in vitro
Tested at: not given
Notes: RNA with constant flanks, human-mouse chimeric sites, ends assumed
Relative to: input RNA pool
Direction: higher = stronger binding
Measurement: bound/input enrichment
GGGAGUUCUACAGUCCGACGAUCUGUAGUUUCUUGAUUUAGUGGCUGGGCUGCUCGGGUUUUUCCUUUAGGAAAAGCCUAAAGAUUAGGUUGUAAGAAAAACAGAAGCCAUGUUUCGAAGACCUGUGUUACAGGUAUUUCGUCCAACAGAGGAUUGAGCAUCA: 1.64 ratio
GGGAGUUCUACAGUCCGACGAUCUUGAAAAACACAGAUAUCAAAGUUGUUGAUUUUGGAAGUGCAACGUAUGAUGAUGAACAUCACAGUACUUUGGUGUCUACCCGGCACUACAGAGCUCCCGAGGUCAUUUUGGCUUUAGGUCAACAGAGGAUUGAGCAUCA: 0.345 ratio
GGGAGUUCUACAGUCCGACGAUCCUGAGGAUACCACUGAAGAGACCUUAAAAGAAUCAUUUGAGGGCUCUCGUUCGGGCAGAAUAGUCACUGAUCGGGAAACUGGUUCUUCCAAAGGGUUUUGGUUUUGUGACUUUAAUAGUGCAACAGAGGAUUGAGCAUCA: 0.456 ratio
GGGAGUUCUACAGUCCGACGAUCCUUAAUGAUAUUUUGAGUGAAUAAAUGAAGCUAAAAUGUCUGCUUUUGGUACAACACGCAUUAAUAAAAGGUUAAGUUUUGUUUUCCACUGAAGUACGUAAUACUUACUCAGAAAAAAACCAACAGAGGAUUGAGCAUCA: 0.136 ratio
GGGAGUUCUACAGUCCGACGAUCGAAUCCUCCCGUGCAAAAUUUUGCAACACCAAGCUCACAGCAGCAGCAUCUUAGUCACAGUUAGGUAGUUUUGGGGCUCUGUGGCCAGGGUUUUAUUCACAUGCAGGUUUGGAAAAUGUACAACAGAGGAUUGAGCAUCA: 3.88 ratio
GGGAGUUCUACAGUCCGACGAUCUAAAUUAGGGCUGCCGUUUUCUGUUUCGCCCUGAGCUGCGGAAAGCCAGAAGAUUUUAUCUAGCUUAUACAAGGCUGCUGGUGUUCCCUCUUUUUUUCCCUCUCUCUGUUUUUGGCUGCACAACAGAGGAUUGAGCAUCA: 0.706 ratio
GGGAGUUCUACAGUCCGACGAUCCUUCGGAAAAAAAAAUUACCUUUUCUGACAGUGCUUUCCCUCCCAUAGAUCCACGUUCAAGCUCAAAGAGCAAAGGCUCCGCAAACAGCUCAAACAUCUGAUGAAGAAAGAUUUCUGAGACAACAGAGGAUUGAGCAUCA: 0.443 ratio
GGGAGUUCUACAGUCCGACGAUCGAUGAUAAUCACACAAACAAGUCACUGUUACAUGACCAGAGUUGUACUUCUUUUCCUGAUUAAUAUUCUCCCUGGAACCACUAGCCAAGGGGAAUCAAGACGACAAGAACCCGGGGACUUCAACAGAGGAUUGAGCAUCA: 0.194 ratio
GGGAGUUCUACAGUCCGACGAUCCCCCAAUACCAUUUGCAGGUCUGGAACUGCACUCUCUUUUUUAAAAAACAUGUAUACAUUUUAGGGCUGUAGAUUUAUUUUCCUGGUUUCUUUUCCAUUGCUUAUUCUUUGAGCACAGAACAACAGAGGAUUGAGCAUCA: 2.13 ratio
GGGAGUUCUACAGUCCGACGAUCACCAUUUUCGCGGUUCAGGCUUUGUGUGUAGUUCACUUACGGUAUUAAAUUAUUAUUCUGCUUAGCUUAAAGUAAGGAUAAUUGCAUUUAAAGAGGUUACUGAAUGUUGUUAUUGUUCUUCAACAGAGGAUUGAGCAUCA: 0.478 ratio
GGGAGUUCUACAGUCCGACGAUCGUUCGGCUCUGGGAUCAUGCCACAAUGACAGAAGUGAAAUCUCUGAAUUUUAAUAUGUCUGUUAGCAGUAUGGAAUAUAUUCCUGAGGGAGAGAUUUUGGUUAUUACUUAUGGACGAUCUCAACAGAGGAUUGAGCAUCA: 0.743 ratio

Some of these lines once more (study 3):
CGGGCTTC: 0.193
GACGTGGC: -0.0331
ACGGATTG: 0.165
